Published values gathered from unrelated publications.
Each numbered part is a random draw from the data of one study; scales do not carry over between parts.

Study 1 — technique: RNA Bind-n-Seq; form: RNA; sample: in vitro; tested at: 200 nM; notes: whole 134-nt RNA, ends assumed; with: 150 mM LiCl; relative to: input library; reading: higher = stronger binding; endpoint: log2 enrichment; library: 7-deaza-guanosine replaces G
Target: Fragile X messenger ribonucleoprotein 1, C-terminal low-complexity region (Fmr1, Mus musculus, UniProt P35922)
All sequences stand within: GGGAGUUCUACAGUCCGACGAUC … UGGAAUUCUCGGGUGUCAAGG
CACAGACAACACGCACCCACACAGACACAGAGGGAAGGGGUUGGGAUGGGGACAGGGUGCACAGCAGGGCGGGGUAGGACCCCAGAAACU: -0.843
UCAAGUCCUGUGCUACACAUCGUAUGUACCGAAUCGGGGAAGGGAAGGGGAAGGAAAGUAUUAUGUUACGCCGUUCGGAUCUGCACUUCC: -1.05
UCCUGUGCUACACAUCGUAUGUACCGAAUCGGGUUUUUUUGGGAAAAAGGGAAAAAGGGAAAGUAUUAUGUUACGCCGUUCGGAUCUGCA: -1.69
GCCCAUGCUAAAGUAAGAUUGUCUAACAAAGUUGAAGCCAUUGAUGUGGAAGAGGCCAAACGCCUCCAUCGGGAAGCUCUGAAGCAGUCU: 0.0354
UUCUCUCUCUCCCUUUGCAGCCGCUGUACAACCAGCCCUCCGACACCCGGCAGUAUCAUGAGAACAUCAAAAUGUGAGUGCUCGCGGGCA: 0.923
UGGGAGGUGGAUUUUGUUUAUUUUUUUAGCUCAUUUCCAGGGGUGCGAAUUUUUUUUUAAUAUGUGUCAUGAAUAAAGUUGUUUUUGAAA: -0.459

Study 2 — technique: protein-binding microarray; form: double-stranded DNA, one strand shown; sample: in vitro; tested at: 2540 nM top; notes: 60-bp whole probe; with: salmon DNA 0.4 mg/ml; relative to: random background probes; reading: higher = stronger binding; endpoint: fitted relative affinity; all sequences stand within: GCCTAGCACT … GTCTTGATTCGCTTGACGCTGCTG
Target: Interferon regulatory factor 3, full length, phosphomimetic (IRF3, Homo sapiens, UniProt Q14653, residues 1-427, S386D/S396D/S398D/S402D/T404D/S405D)
Construct (chain): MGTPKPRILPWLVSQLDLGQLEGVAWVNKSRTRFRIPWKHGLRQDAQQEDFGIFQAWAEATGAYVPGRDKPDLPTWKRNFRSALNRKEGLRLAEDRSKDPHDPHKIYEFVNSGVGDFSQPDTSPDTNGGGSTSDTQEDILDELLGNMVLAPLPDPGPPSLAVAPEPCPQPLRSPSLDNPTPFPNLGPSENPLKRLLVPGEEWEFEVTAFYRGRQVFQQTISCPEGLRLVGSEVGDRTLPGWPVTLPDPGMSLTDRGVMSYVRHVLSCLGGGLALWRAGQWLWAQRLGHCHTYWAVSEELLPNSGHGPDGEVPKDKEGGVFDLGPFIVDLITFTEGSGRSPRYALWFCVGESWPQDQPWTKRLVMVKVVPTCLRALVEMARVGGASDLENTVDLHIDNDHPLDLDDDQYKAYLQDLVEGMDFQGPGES
GTTTCCTCTTTCTTTGCTTGTGCTAG: 6.33 z-score
CACTCTTCTGGATCTCACTGTGCTAG: 1.04 z-score
TAGGTTTGCTACTGCTTTAGTGCTAG: -0.394 z-score
CACATTTTTTTTCATCACTGTGCTAG: 0.763 z-score
TAGATCTCGGACTGGATTAGTGCTAG: -0.217 z-score
TAGGACTGGGGTTTCGGTTAGTGCTA: 2.41 z-score

Study 3 — technique: protein binding microarray; form: double-stranded DNA, one strand shown; sample: in vitro; tested at: not given; relative to: not given; reading: higher = stronger binding; endpoint: E-score
Target: Histone acetyltransferase KAT6A, winged helix 1, GST fusion (KAT6A, Homo sapiens, UniProt Q92794, residues 1-85)
Notes: 8-mer, flanks averaged, mean of 2 arrays, mostly near background
Residues (chain): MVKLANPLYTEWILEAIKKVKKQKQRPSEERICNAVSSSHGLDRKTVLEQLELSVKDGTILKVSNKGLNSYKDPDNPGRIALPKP
TCCTGACA: -0.28
AATCGTTG: -0.0762
CCTGGTCA: -0.187
ACTACAGG: -0.0229
AATGCGAC: 0.271
CTTTGCCC: -0.0877

Single results of other studies
PhoQ, residues 284 288 289 292 302 303 TAVSDG — fold induction (PhoP, residues 12 14 15 18 19 LHSVW (Escherichia coli, UniProt P23836); Sort-seq, refers to: YFP reporter; E. coli; PhoQ-PhoP variant library, with: 10 µM Mg2+; relative to: high Mg2+ state, higher = stronger signaling): 1.02
